{"sequences": {"note": "The chains behind the UniProt entries cited, without tags or fusion partners.", "UniProt P41145, whole entry": "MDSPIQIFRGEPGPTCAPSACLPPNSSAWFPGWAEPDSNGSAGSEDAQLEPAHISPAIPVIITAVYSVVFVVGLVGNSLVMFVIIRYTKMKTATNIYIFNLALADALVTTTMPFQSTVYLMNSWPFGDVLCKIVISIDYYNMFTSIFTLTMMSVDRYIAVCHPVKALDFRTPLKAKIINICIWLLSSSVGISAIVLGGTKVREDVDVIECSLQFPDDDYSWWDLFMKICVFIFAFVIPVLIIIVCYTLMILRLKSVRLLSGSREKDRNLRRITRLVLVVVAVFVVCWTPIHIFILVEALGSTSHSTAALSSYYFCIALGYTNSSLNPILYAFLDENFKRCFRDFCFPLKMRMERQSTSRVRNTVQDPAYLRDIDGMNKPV", "UniProt P41146, whole entry": "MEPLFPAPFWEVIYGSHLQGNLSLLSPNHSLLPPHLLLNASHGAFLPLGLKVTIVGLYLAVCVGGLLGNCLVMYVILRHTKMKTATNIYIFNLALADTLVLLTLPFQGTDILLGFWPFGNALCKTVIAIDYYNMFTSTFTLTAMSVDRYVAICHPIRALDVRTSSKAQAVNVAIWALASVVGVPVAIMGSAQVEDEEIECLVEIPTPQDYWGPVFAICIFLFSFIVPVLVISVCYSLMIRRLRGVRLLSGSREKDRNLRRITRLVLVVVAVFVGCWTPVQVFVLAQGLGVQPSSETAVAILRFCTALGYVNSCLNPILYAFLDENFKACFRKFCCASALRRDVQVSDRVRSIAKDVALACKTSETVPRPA"}, "data": "Published values from different studies", "note": "Compare with care: the assays were run in different laboratories. ± marks the error that the study gave."}
{"Molecule": "13,19-didesmethyl spirolide C", "tested on": "nicotinic acetylcholine receptor (Torpedo marmorata)", "test": "binding", "setting": "Pecten maximus extract 25 mg/mL, added: biotin-α-bungarotoxin", "quantity": "IC50", "value": "0.00257 ± 0.00106 µM"}
{"Molecule": "nitric oxide", "tested on": "Clostridium botulinum H-NOX Y139F", "test": "binding", "system": "six-coordinate heme-His complex", "quantity": "Kd", "value": "0.00012 µM"}
{"Molecule": "CCOC(=O)OC(=O)OCC", "tested on": "TTX-resistant Na channel (sheep heart)", "system": "sheep heart membranes", "setting": "10 mM, 1 h, pH 5.5 or 7.5, room temperature", "quantity": "specific [3H]saxitoxin binding abolished", "value": "> 50%"}
{"Molecule": "CCOP(=O)(OCC)Oc1ccc([N+](=O)[O-])cc1", "tested on": "recombinant PON1 variant, gene-shuffled, mainly rabbit", "test": "enzymatic hydrolysis, substrate", "setting": "pH 7.4, 1% methanol", "quantity": "Km", "value": "900 ± 200 µM"}
{"Molecule": "O=C([O-])c1ccc[n+]([C@@H]2O[C@H](COP(=O)(O)O)[C@@H](O)[C@H]2O)c1", "tested on": "nicotinamide mononucleotide adenylyltransferase R133A, His-tagged", "test": "substrate", "quantity": "kcat", "value": "0.567 s⁻¹"}
{"Molecule": "carbon monoxide", "tested on": "Clostridium botulinum H-NOX Y139F", "test": "binding", "quantity": "Kd", "value": "0.33 µM"}
{"Molecule": "CCC1C(=O)N(C2CCN(C(C)CC(c3ccccc3)c3ccccc3)CC2)c2ccccc21 (stereo not drawn)", "tested on": "OPRK1 (Homo sapiens, UniProt P41145)", "test": "radioligand displacement", "setting": "added: tritiated U-69593", "quantity": "Ki", "value": "4.17 µM"}
{"Molecule": "pinnatoxin A", "tested on": "nicotinic acetylcholine receptor (Torpedo marmorata)", "test": "binding", "setting": "added: biotin-α-bungarotoxin 80 nM", "quantity": "Ki", "value": "0.023 ± 0.0122 µM"}
{"Molecule": "C[C@H](NP(=O)(Nc1ccn([C@H]2CS[C@@H](COP(=O)(N[C@@H](C)C(=O)OCc3ccccc3)N[C@@H](C)C(=O)OCc3ccccc3)O2)c(=O)n1)N[C@@H](C)C(=O)OCc1ccccc1)C(=O)OCc1ccccc1", "tested on": "COLO 320", "test": "cell proliferation", "setting": "72 h", "quantity": "IC50", "value": "> 250 µM"}
{"Molecule": "NC12CC3CC(CC(C3)C1)C2", "tested on": "Influenza A virus", "test": "viral replication", "system": "MDCK, A/Swine/Iowa/13-0515/2010 (H3N2)", "quantity": "EC50", "value": "< 1 µM"}
{"Molecule": "CCN1C(=O)C=CC1=O", "tested on": "TTX-resistant Na channel (sheep heart)", "system": "sheep heart membranes", "setting": "50 mM, 2 h, added: [3H]saxitoxin 20 nM", "how to read": "reference: untreated control", "quantity": "[3H]saxitoxin bound", "value": "~41%"}
{"Molecule": "COP(=O)(OC)OC=C(Cl)Cl", "tested on": "acetylcholinesterase, mouse", "test": "enzyme activity, inhibitor, modified Ellman method", "system": "Mus musculus, serum", "setting": "sc, 1 h", "quantity": "ED50", "value": "9.43 mg/kg"}
{"Molecule": "pinnatoxin G", "tested on": "nicotinic acetylcholine receptor (Torpedo marmorata)", "test": "binding", "setting": "methanol standard, added: biotin-α-bungarotoxin 80 nM", "quantity": "IC50", "value": "0.0201 ± 0.0133 µM"}
{"Molecule": "O=C1Cc2ccccc2N1C1CCN([C@H]2CC[C@@H]3CCCc4cccc2c43)CC1 (relative stereo)", "tested on": "Nociceptin receptor (OPRL1, Homo sapiens, UniProt P41146)", "test": "agonist", "system": "cell membranes", "quantity": "EC50", "value": "0.0849 ± 0.00112 µM"}
{"Molecule": "O=[As]c1ccccc1 (stereo not drawn)", "tested on": "rat Y2 receptor", "system": "rat brain particulates", "setting": "30 µM", "how to read": "reference: control", "quantity": "Y2 receptor density change", "value": "≤ 15%"}
{"note": "For quick reference, copied from above:"}
{"Molecule": "CCOC(=O)OC(=O)OCC", "tested on": "TTX-resistant Na channel (sheep heart)", "system": "sheep heart membranes", "setting": "10 mM, 1 h, pH 5.5 or 7.5, room temperature", "quantity": "specific [3H]saxitoxin binding abolished", "value": "> 50%"}
{"Molecule": "CCOP(=O)(OCC)Oc1ccc([N+](=O)[O-])cc1", "tested on": "recombinant PON1 variant, gene-shuffled, mainly rabbit", "test": "enzymatic hydrolysis, substrate", "setting": "pH 7.4, 1% methanol", "quantity": "Km", "value": "900 ± 200 µM"}
